Measured values gathered from unrelated publications.
Each numbered part is a random draw from the data of one study; scales do not carry over between parts.

Block 1
Target: Sal-like protein 4, full length isoform A (SALL4, Homo sapiens, UniProt Q9UJQ4, residues 1-1053)
Chain of UniProt Q9UJQ4 (whole entry, looked up): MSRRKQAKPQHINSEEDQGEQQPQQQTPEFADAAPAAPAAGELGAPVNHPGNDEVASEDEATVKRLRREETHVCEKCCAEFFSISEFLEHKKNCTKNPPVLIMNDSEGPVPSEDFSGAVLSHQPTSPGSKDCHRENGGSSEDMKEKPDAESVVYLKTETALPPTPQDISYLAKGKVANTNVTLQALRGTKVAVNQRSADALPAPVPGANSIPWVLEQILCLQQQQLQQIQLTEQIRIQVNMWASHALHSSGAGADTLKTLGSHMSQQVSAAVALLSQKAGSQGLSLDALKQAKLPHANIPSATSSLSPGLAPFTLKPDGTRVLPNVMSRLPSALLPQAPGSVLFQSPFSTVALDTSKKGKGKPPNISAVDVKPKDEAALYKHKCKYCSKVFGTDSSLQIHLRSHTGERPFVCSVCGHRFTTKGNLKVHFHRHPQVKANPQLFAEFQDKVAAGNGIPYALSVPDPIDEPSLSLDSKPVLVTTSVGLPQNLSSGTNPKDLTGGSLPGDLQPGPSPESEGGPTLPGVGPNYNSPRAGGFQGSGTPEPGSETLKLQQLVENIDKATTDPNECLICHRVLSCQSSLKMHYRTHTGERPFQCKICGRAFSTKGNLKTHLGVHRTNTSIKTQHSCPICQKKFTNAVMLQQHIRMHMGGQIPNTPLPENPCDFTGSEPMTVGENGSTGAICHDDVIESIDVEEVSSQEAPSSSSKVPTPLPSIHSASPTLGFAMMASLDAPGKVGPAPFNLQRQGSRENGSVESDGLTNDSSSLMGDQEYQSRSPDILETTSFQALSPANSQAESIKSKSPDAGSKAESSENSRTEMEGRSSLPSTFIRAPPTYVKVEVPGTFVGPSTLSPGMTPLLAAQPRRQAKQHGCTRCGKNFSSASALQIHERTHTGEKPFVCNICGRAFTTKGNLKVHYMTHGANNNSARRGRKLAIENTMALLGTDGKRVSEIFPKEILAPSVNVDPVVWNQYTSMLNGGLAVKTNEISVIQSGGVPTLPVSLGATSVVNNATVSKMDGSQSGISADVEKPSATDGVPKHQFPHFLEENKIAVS
Technique: universal PBM
Form: double-stranded DNA, one strand shown
Medium: in vitro
Tested at: 600 nM
Setting: 8-mer, flanks averaged, mean of replicates
Reading: higher = stronger binding
| Oligonucleotide | E-score |
| --- | --- |
| GCTCGGCA | -0.145 |
| TGAAGAAA | 0.176 |
| ACAATCGG | -0.0514 |
| CTGCACAA | 0.00681 |
| CGAGCTGA | -0.131 |

Block 2
Target: RNA binding protein fox-1 homolog 2, RRM domain, GST-SBP tag (RBFOX2, Homo sapiens, UniProt O43251-10, residues 100-194)
Technique: RNA Bind-n-Seq
Form: RNA
Medium: in vitro
Tested at: 365 nM
Setting: natural RNA segment, single round, ends assumed
Baseline: no-protein control
Reading: higher = stronger binding
Construct (chain): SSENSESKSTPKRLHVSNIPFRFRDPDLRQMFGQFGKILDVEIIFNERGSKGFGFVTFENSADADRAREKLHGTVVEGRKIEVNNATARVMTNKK
| Oligonucleotide | RBNS enrichment (R) |
| --- | --- |
| GGGAGUUCUACAGUCCGACGAUCCUUUUGCACAAAUGCUUUAGAUUGUAUGGUCUACACUCAGGAAGACACUAGGUCACCCAGGCAAAGCCAGUGGACAGAUGCCUUUCAUAUAACCUGGGUGGGCUUUUGGAUGGAAUUCUCGGGUGCCAA | 0.372 |
| GGGAGUUCUACAGUCCGACGAUCACAAAAUGGAGAGCAUACUUACAGACUCCUGUGCGAUAGCUACUUUUAAAUACAUUUCAAUAAUUUUAACAAAUUUGCAUUUUUAUUGAGUUGCUGACUGAAUCUAUCUUUGGAAUUCUCGGGUGCCAA | 0.79 |
| GGGAGUUCUACAGUCCGACGAUCUUCAUCCUCCUCCUUUUUUAAAAGUCAACGAGAGCCUUCGCUGACUCCACCGAAGAGGUGCGCCACUGGGAGCCACCCCAGCGCCAGGCGCCCGUCCAGGGACACACACAUGGAAUUCUCGGGUGCCAA | 0.24 |
| GGGAGUUCUACAGUCCGACGAUCAUCUAAAAAAAUGUAUAUGGGUAAGGACCUGAAAGAUCCAUGGAAAAGUUAACCCAGUUGAGAUUUUUAAAAAGUUUUACAAAUACAUAUAACACUUAUGUGCUGGGCUUUGGAAUUCUCGGGUGCCAA | 0.714 |

Block 3
Target: Ras GTPase-activating protein-binding protein 1, full length (G3BP1, Homo sapiens, UniProt Q13283)
Chain of UniProt Q13283 (whole entry, looked up): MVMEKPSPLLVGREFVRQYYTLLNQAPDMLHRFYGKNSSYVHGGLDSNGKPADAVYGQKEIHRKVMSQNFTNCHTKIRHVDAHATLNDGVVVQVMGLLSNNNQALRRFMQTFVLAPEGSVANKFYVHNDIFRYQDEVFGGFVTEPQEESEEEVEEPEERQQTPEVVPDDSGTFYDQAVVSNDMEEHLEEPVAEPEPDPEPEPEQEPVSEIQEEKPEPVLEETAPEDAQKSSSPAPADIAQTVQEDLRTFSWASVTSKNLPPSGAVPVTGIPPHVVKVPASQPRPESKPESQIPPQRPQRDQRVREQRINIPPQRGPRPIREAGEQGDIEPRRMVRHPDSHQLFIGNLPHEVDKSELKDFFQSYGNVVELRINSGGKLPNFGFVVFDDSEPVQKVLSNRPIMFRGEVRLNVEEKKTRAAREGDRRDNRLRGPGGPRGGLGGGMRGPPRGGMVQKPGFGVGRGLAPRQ
Technique: RNA Bind-n-Seq
Form: RNA
Medium: in vitro
Tested at: 200 nM
Setting: whole 134-nt RNA, ends assumed
With: 150 mM LiCl
Baseline: input library
Reading: higher = stronger binding
Each molecule: 7-deaza-guanosine replaces G
Shared flanks, not repeated: GGGAGUUCUACAGUCCGACGAUC … UGGAAUUCUCGGGUGUCAAGG
| Oligonucleotide | log2 enrichment |
| --- | --- |
| GUCCUGUGCUACACAUCGUAUGUACCGAAUCGGGGUUUGGGGUUUGGGGUUUUUGGGGAAAGUAUUAUGUUACGCCGUUCGGAUCUGCAC | -0.45 |
| GCAGGAAGUAAAAACAAAUGGAAAUGCUUCGGAUAGUGGCAGGGGUGGGGUUUGCUAAGGAAAGGGUGGGAUGGGAGUGGGUAAAGAGUU | -0.128 |
| UAACUUUAGAGGAGGAUCUGAUGGAUAUGGCAGUGGACGUGGAUUUGGGGAUGGCUAUAAUGUGUAUGGAGGAGGACCUGGAGGUGGCAA | 0.484 |
| GCAGGAAGUAAAAACAAAUGGAAAUGCUUCGGAUAGUGGCAGGGGUGGGGGGUGCUAAGGAAAGGGUGGGAUGGGAGUGGGUAAAGAGUU | -0.104 |
| CACAGACAACACACACCCACACAGACACAGAGGGAAGGGGUUGGGAUGGGGACAGGGUGCACAGCAGGGCGGGGUAGGACCCCAGCCCCU | -0.303 |
| CACAGACAACACGCACCCACACAGACACAGAGGGAAGGGGUUGGGAUGGGGACAGGGUGCACAGCAGAGCGGGGUAGGACCCCAGCCCCU | 0.228 |

Single results of other studies
| Molecule | target | assay | test system | setting | scale | measurement | result |
| --- | --- | --- | --- | --- | --- | --- | --- |
| PhoQ, residues 284 288 289 292 302 303 AGGLSV | PhoP, residues 12 14 15 18 19 AGCRL (Escherichia coli, UniProt P23836) | Sort-seq, measured: YFP reporter | E. coli | PhoQ-PhoP variant library, with: 10 µM Mg2+ | baseline: high Mg2+ state, higher = stronger signaling | fold induction | 4.53 |

Some of these lines once more (block 3):
| Oligonucleotide | log2 enrichment |
| --- | --- |
| CACAGACAACACACACCCACACAGACACAGAGGGAAGGGGUUGGGAUGGGGACAGGGUGCACAGCAGGGCGGGGUAGGACCCCAGCCCCU | -0.303 |
